{"data": "Measurements of several laboratories", "note": "Parts stem from different laboratories: compare values within a part only. Substitutions count along the parent as printed."}
{"data": "Block 1", "target": "Centromere-binding protein 1, full length, N-terminal tag (CBF1, Saccharomyces cerevisiae, UniProt P17106, residues 1-351)", "technique": "protein-binding microarray", "form": "double-stranded DNA, one strand shown", "medium": "in vitro", "concentration": "0.8 µM", "notes": "whole 60-bp probe, no competitor", "direction": "higher = stronger binding", "shared flanks, not repeated": "… GTCTTGATTCGCTTGACGCTGCTG", "sequence of UniProt P17106 (whole entry, looked up)": "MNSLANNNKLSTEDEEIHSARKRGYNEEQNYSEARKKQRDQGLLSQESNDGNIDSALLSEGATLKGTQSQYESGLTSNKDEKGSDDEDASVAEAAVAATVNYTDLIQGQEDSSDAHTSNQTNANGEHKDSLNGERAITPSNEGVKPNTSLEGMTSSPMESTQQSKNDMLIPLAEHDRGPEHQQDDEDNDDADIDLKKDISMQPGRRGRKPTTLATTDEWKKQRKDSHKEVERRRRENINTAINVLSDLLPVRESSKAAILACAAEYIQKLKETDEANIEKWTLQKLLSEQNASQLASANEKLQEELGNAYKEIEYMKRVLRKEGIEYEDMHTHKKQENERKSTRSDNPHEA"}
{"Oligonucleotide": "GAACAATGCTGACAGCTGAGTATTGCAACACAATAG", "fluorescence intensity": "485 a.u."}
{"Oligonucleotide": "GAATACATTCCGGGTCACATGTGCCCAAATTCTTAG", "fluorescence intensity": "8680 a.u."}
{"Oligonucleotide": "CCTAACTACTATAGTGAGTTCAAATAGCTTCGTACA", "fluorescence intensity": "472 a.u."}
{"Oligonucleotide": "CTACCGGCTTTCTCCCACGAGGTTTCACTGCTGTTC", "fluorescence intensity": "550 a.u."}
{"Oligonucleotide": "GAAGATTCTTTATCAGCTGTTATATACCCATAGTAG", "fluorescence intensity": "807 a.u."}
{"Oligonucleotide": "CTAAATCTTCAAAATCATGTGGATTTTTATTGATTC", "fluorescence intensity": "792 a.u."}
{"Oligonucleotide": "GAAACAATGTTCCCTCTGATGTACATTTACGAATAG", "fluorescence intensity": "510 a.u."}
{"Oligonucleotide": "GAAATACCTTTGTTCAAGGTGGCGTTTGCCGTATAG", "fluorescence intensity": "533 a.u."}
{"data": "Block 2", "target": "RNA binding protein fox-1 homolog 2, RRM domain, GST-SBP tag (RBFOX2, Homo sapiens, UniProt O43251-10, residues 100-194)", "technique": "RNA Bind-n-Seq", "form": "RNA", "medium": "in vitro", "concentration": "365 nM", "notes": "natural RNA segment, single round, ends assumed", "relative to": "no-protein control", "direction": "higher = stronger binding", "shared flanks, not repeated": "GGGAGUUCUACAGUCCGACGAUC … UGGAAUUCUCGGGUGCCAA", "Target sequence (chain)": "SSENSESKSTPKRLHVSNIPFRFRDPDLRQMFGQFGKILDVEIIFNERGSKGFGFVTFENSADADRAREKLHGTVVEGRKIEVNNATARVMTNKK"}
{"Oligonucleotide": "UUUGGAAAUACCUUCCUGGCCCCGCCCCUACCCCUUCUUUUUGGUUUUGACAUCACCCAUUUCCAACUGGGGAUCUCUGGUGCCAAGCCAGAAAGAACGAGGCAUGUAUA", "RBNS enrichment (R)": 0.406}
{"Oligonucleotide": "AGAAGGCGGAGAAGGAAGAAGUAACCUCUGAGUGGCGGCUAUUGCUUCUGUUCCAGGUGCUGUUCGAGCUGUUAGAACCCUUAGGCUUGACAGCUUUGUGAGUUAUUAUU", "RBNS enrichment (R)": 0.368}
{"Oligonucleotide": "CGAUGGCCAGCUGUCUCCCUCCGUGGCAUCUGCUAUUCAAAGAAGAUGGAGUGAGAGGGGCGCCAGAGUUUCAUGGGGGCUUUACUCAUUCAUUUCAUUUAGGGACUCUG", "RBNS enrichment (R)": 0.335}
{"Oligonucleotide": "CUGGAACUGUUGGACACAGUUGAAAGUGUGGUGGGGAAACCAUACAAUUGUUUUUACAGUUUUAGCCAAGUUUCUGUGAAUGCUAGAGAUUUAUACUUGAUUAUUUGUAU", "RBNS enrichment (R)": 5.67}
{"Oligonucleotide": "GGGAGUGAGUCAGUGUCUGGGAGUGGGGUAGGCAGCUUCCAUUAGGGUCCUUUUCCUUCACCAGCAGUGGGAUAUUCGGAACAGAACCUCCUGCUUUCUGCCCAAGAGUG", "RBNS enrichment (R)": 0.314}
{"Oligonucleotide": "CCAGCAGCACCGUACCUCUGCCCUGUAAAAAUCAGACUCGGAACCGAUGUGUGCUUUAGGGAAUUUUAAGUUGCAUGCAUUUCAGAGACUUUAAGUCAGUUGGUUUUUAU", "RBNS enrichment (R)": 11.1}
{"Oligonucleotide": "AAUCUAAUGUUUAAAAGGUUAGGGAACAUGGAUAUUCGUACUCACAUCUGCGCCCCUCCCCCUUGCCUUCUGGGUACCAAACUUGAGGGAGGGGAGAGCUGUUGAAGCAG", "RBNS enrichment (R)": 0.493}
{"Oligonucleotide": "ACUAACUUUGUAAAAUGUGUCUGGACCACAAGAGGAUACAGGAGAAGUGCUACCUCUGAUCUAACUAGAGCAAGCUCAUGGCAGAAAAUAUCACAAACUUUAAAAUGUGA", "RBNS enrichment (R)": 0.394}
{"data": "Block 3", "Molecule": "PhoQ, residues 284 288 289 292 302 303 SSTMSV", "technique": "Sort-seq", "measured": "YFP reporter", "medium": "E. coli", "notes": "PhoQ-PhoP variant library", "together with": "10 µM Mg2+", "relative to": "high Mg2+ state", "direction": "higher = stronger signaling"}
{"target": "PhoP, residues 12 14 15 18 19 TQALL (Escherichia coli, UniProt P23836)", "fold induction": 3.25}
{"target": "PhoP, residues 12 14 15 18 19 QYFSL (Escherichia coli, UniProt P23836)", "fold induction": 13.7}
{"target": "PhoP, residues 12 14 15 18 19 NYFRM (Escherichia coli, UniProt P23836)", "fold induction": 13.9}
{"data": "Block 4", "target": "CCND1, cyclin fold, Cln2 fusion (human)", "technique": "yeast growth competition, sequencing", "medium": "yeast", "notes": "weak parent motif", "relative to": "not given", "direction": "higher = stronger binding", "starting sequence": "RB1 docking peptide (human); PKPLKKLRFDIEG; partner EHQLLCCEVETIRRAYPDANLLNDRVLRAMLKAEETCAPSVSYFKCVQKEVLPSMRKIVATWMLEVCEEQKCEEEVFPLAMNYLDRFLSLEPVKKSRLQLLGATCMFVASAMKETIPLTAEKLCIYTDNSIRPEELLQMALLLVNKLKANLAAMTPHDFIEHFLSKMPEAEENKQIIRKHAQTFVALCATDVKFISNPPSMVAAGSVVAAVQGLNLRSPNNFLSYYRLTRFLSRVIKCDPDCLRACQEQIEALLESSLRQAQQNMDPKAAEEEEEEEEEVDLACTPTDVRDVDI"}
{"Change": "PKPLKKLQFDIEG [R8Q]", "normalised enrichment score": -0.141}
{"Change": "PKPLEKLRFDIEG [K5E]", "normalised enrichment score": 0.46}
{"Change": "PKPLKPLRFDIEG [K6P]", "normalised enrichment score": 1.15}
{"Change": "PKPLKKVRFDIEG [L7V]", "normalised enrichment score": 0.212}
